# Assay results gathered from unrelated publications.
# Every numbered part comes from another study and shows a few of its results, in no order. Positions count from the first letter of the parent shown.

# Series 1 — technique: universal PBM; form: double-stranded DNA, one strand shown; matrix: in vitro; concentration: 600 nM; direction: higher = stronger binding
# Target: Sal-like protein 4, full length isoform A (SALL4, Homo sapiens, UniProt Q9UJQ4, residues 1-1053)
# Sequence of UniProt Q9UJQ4 (whole entry, looked up): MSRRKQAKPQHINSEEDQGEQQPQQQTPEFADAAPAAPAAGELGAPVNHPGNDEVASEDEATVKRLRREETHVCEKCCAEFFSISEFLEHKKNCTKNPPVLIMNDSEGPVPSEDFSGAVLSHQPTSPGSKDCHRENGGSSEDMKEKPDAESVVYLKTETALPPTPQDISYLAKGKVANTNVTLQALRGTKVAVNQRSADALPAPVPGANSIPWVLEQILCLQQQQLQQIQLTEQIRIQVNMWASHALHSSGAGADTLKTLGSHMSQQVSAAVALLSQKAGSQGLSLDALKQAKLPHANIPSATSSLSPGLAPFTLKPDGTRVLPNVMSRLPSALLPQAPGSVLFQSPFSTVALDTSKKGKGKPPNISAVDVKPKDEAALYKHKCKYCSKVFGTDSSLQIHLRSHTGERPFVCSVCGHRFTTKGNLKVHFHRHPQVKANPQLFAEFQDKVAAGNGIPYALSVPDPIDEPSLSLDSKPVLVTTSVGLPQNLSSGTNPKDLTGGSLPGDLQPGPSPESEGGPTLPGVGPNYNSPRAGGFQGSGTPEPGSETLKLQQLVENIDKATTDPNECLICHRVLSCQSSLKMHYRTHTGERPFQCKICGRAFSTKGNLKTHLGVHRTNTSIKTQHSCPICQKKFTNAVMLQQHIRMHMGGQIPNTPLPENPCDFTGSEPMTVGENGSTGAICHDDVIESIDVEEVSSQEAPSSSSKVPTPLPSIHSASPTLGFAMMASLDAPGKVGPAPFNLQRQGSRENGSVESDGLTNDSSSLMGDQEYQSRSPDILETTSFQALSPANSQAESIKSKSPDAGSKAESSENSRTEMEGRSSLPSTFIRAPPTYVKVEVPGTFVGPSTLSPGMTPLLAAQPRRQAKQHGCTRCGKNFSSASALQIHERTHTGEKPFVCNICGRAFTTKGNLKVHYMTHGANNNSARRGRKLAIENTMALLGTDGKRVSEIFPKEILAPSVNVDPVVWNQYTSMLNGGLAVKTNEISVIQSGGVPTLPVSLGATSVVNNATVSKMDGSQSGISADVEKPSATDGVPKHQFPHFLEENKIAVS
# Notes: 8-mer, flanks averaged, mean of replicates
Sequence,E-score
TCCGGGAA,-0.075
GTCAAGTA,0.0165
CTCATCAA,0.124
CTGCGTGC,-0.257
ACCCAGAG,-0.181
AGGCAGAG,-0.00668
ACGACCCG,-0.241
GGCACAGA,-0.246
ACGATTAC,0.0548
CTCGAAAC,-0.0585
CGTCTCAC,-0.251
GAACTCAA,-0.0517
GCTACTCA,-0.0736
GGCCCGCC,-0.355
AGAGTCCC,-0.18
TGACATAA,0.315
AGAGCCTC,-0.251
ACCAGGTG,-0.304
CTACGTAG,-0.0213

# Series 2 — target: ATF7, bZIP domain (human); technique: DHFR protein complementation; matrix: yeast; relative to: wild-type JUN-FOS pair; direction: higher = stronger binding
# Notes: single substitutions, most at no-binding floor
# Starting sequence: JUN, bZIP domain (human); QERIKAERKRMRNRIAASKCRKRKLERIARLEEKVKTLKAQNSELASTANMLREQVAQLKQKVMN; partner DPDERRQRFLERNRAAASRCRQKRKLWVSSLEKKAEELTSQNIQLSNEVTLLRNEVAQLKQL
Change,binding fitness
I28Q,-0.941 natural log
E44C,-1.17 natural log
I28T,-1.16 natural log
M51R,-0.886 natural log
E44W,-1.23 natural log
K36L,-1.08 natural log
M51A,-0.85 natural log
E32M,-0.991 natural log
K36E,-0.805 natural log
R30Y,-0.956 natural log
E33S,-1.19 natural log
E33C,-1.25 natural log
K39H,-1.05 natural log
R30Q,-0.618 natural log
A46G,-1.35 natural log
E32G,-1.34 natural log
E54M,-1.16 natural log
Q55Y,-1.2 natural log
R53V,-1.47 natural log

# Series 3 — technique: DHFR PCA, deep sequencing; matrix: yeast; with: (+)-ABA 0 µM; relative to: wild-type fitted maximum; direction: higher = stronger binding
# Target: ABI1, truncated, D143A, DHFR fusion (Arabidopsis thaliana)
# Notes: methotrexate growth selection, single substitutions
# Starting sequence: PYL1, truncated, DHFR fusion (Arabidopsis thaliana); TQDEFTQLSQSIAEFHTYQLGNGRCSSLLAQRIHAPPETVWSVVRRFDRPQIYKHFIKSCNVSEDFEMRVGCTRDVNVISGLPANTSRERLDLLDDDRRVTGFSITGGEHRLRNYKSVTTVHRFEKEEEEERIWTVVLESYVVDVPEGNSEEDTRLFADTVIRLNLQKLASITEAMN
Change,relative binding score [%]
R99C,12.9
E151C,11
Q7A,31.6
F5E,6.46
T6G,23.6
S104D,-6.55
D65L,1.17
T1D,26.8
V121L,5.2
D95F,-14.6
D95H,-1.98
L112E,-2.08
V44G,1.43

# Series 4 — target: CCNB3, cyclin fold, Cln2 fusion (human); technique: yeast growth competition, sequencing; matrix: yeast; notes: weak parent motif; relative to: not given; direction: higher = stronger binding
# Starting sequence: GMNC docking peptide (human); KNAKRNLSSEFAN; partner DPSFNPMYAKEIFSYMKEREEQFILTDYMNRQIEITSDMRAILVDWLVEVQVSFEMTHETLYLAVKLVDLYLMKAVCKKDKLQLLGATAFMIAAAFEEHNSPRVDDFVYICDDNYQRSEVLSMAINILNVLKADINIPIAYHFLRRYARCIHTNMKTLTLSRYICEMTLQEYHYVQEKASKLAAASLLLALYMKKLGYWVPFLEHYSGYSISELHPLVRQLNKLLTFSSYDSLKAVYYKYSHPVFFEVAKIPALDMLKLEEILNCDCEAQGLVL
Change,normalised enrichment score
KNAKRNLESEFAN [S8E],-0.0476
KNAKNNLSSEFAN [R5N],0.0599
KNAKRNLSSEFVN [A12V],-0.206
KNAKLNLSSEFAN [R5L],0.0671
KNFKRNLSSEFAN [A3F],0.262
KNAKRNLSSEMAN [F11M],0.46
KNAKRPLSSEFAN [N6P],0.0367
KCAKRNLSSEFAN [N2C],0.251
KNAKCNLSSEFAN [R5C],0.0439
KNAKRNLSSEFNN [A12N],0.257
KMAKRNLSSEFAN [N2M],0.263
KNAKRFLSSEFAN [N6F],-0.0953
KNAKRELSSEFAN [N6E],0.45
KNATRNLSSEFAN [K4T],-0.0102
KNAKRNLSSGFAN [E10G],0.599
KNAKRNWSSEFAN [L7W],-0.0806
KNAKRNLSAEFAN [S9A],0.61
KNAKRILSSEFAN [N6I],-0.0397
KNAKRNLNSEFAN [S8N],0.514
KNAKTNLSSEFAN [R5T],0.194
KKAKRNLSSEFAN [N2K],0.548
KNAKRNLSSEFDN [A12D],0.285
KNAKRNLSSHFAN [E10H],0.231
KNIKRNLSSEFAN [A3I],0.474
KNAKRNLSSEFLN [A12L],-0.089

# Series 5 — technique: RNA Bind-n-Seq; form: RNA; matrix: in vitro; concentration: 200 nM; notes: whole 134-nt RNA, ends assumed; with: 150 mM KCl; relative to: input library; direction: higher = stronger binding
# Target: Fragile X messenger ribonucleoprotein 1, C-terminal low-complexity region (Fmr1, Mus musculus, UniProt P35922)
# Shared flanks, not repeated: GGGAGUUCUACAGUCCGACGAUC … UGGAAUUCUCGGGUGUCAAGG
Sequence,log2 enrichment
CACAGACAACACGCACCCACACAGACACAGAGGGAUGGGGUUGGGAUGGGGACAGGGUGCACAGCAGGGCGGGGUAGGACCCCAGCCCCU,1.36
UCAAGUCCUGUGCUACACAUCGUAUGUACCGAAUCGGGCCCGGGCCCGGGCCCGGAAAGUAUUAUGUUACGCCGUUCGGAUCUGCACUUC,-0.483
AGUCCUGUGCUACACAUCGUAUGUACCGAAUCGGAAAAAAAGGAAAGGAAAAAAAGGAAAGUAUUAUGUUACGCCGUUCGGAUCUGCACU,-0.866
AGUCCUGUGCUACACAUCGUAUGUACCGAAUCGGUUUUUGGUUUUUUUGGAAAAAGGAAAGUAUUAUGUUACGCCGUUCGGAUCUGCACU,-1.13
GCAGGAAGUAAAAACAAAUGGAAAUGCUUCGGAUAGUGGCAGGGGUGGGGGUUGCUAAGGAAAGGGUGGGAUGGGAGUGGGUAAAGGGUU,0.147
UCCUCAAGUCCUGUGCUACACAUCGUAUGUACCGAAUCGGAGGUUUGGUGGAAAGUAUUAUGUUACGCCGUUCGGAUCUGCACUUCCAGC,-0.615
GCAGGAAGUAAAACCAAAUGGAAAUGCUUCGGAUAGUGGCAGGGGUGGGGGUUGCUAAGGAAAGGGUGGGAUGGGAGUGGGUAAAGAGUU,0.945
UGGCUGCAGGCGCACCCCGGCAGGAUUUUGCCUCCGCUGUCGCCCCCGCAGCACCGCUACUCGGAGGGCGAGCGGACCUCCCUGGAGAAG,-0.615
UGGGAGGUGGAUUUUGUUUAUUUUUUUAGCUCAUUUCCAGGGGUGGGAAUUUUUUUUUAAUAUGUGUCAUGAUUAAAGUUGUUUUUGAAA,0.348

# Series 6 — technique: protein binding microarray; form: double-stranded DNA, one strand shown; matrix: in vitro; concentration: not given; relative to: not given; direction: higher = stronger binding
# Target: Histone acetyltransferase KAT6A, both winged helices, GST fusion (KAT6A, Homo sapiens, UniProt Q92794, residues 1-181)
# Notes: 8-mer, flanks averaged, mean of 2 arrays, mostly near background
# Residues (chain): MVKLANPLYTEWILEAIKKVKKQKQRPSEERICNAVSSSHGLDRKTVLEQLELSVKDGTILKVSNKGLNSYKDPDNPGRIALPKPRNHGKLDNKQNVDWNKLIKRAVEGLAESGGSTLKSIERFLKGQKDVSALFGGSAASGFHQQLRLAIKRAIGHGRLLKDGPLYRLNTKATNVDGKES
Sequence,E-score
CAACACTC,0.00932
CGCAACGA,0.102
CTATCGAA,0.0742
GATTCGTA,0.103
CCCGCACA,0.297
CTGGAACC,0.0228
AACAAGGG,-0.108
CAACGCAG,0.143
ACCTATCT,-0.164
ATTCGTTC,-0.132
GAAAATAC,0.055
AAGTTTCT,-0.125
ATTGAGGG,-0.137
AACACTGA,-0.0778
GCCCACAA,-0.0761
CATCAGTA,-0.157
CGCATGGC,0.169
AGGGCCAG,-0.324
CGCGCGGA,0.35
CCTTATGC,-0.128
AGGGTGAT,-0.234
